Published values of several laboratories.
Lines come from different studies, so protocols differ. Several values in a cell are separate wells, animals, samples, runs or records. Positions count from the first letter of the parent shown. ± gives the spread as reported.
P1: TECPR2 (Homo sapiens); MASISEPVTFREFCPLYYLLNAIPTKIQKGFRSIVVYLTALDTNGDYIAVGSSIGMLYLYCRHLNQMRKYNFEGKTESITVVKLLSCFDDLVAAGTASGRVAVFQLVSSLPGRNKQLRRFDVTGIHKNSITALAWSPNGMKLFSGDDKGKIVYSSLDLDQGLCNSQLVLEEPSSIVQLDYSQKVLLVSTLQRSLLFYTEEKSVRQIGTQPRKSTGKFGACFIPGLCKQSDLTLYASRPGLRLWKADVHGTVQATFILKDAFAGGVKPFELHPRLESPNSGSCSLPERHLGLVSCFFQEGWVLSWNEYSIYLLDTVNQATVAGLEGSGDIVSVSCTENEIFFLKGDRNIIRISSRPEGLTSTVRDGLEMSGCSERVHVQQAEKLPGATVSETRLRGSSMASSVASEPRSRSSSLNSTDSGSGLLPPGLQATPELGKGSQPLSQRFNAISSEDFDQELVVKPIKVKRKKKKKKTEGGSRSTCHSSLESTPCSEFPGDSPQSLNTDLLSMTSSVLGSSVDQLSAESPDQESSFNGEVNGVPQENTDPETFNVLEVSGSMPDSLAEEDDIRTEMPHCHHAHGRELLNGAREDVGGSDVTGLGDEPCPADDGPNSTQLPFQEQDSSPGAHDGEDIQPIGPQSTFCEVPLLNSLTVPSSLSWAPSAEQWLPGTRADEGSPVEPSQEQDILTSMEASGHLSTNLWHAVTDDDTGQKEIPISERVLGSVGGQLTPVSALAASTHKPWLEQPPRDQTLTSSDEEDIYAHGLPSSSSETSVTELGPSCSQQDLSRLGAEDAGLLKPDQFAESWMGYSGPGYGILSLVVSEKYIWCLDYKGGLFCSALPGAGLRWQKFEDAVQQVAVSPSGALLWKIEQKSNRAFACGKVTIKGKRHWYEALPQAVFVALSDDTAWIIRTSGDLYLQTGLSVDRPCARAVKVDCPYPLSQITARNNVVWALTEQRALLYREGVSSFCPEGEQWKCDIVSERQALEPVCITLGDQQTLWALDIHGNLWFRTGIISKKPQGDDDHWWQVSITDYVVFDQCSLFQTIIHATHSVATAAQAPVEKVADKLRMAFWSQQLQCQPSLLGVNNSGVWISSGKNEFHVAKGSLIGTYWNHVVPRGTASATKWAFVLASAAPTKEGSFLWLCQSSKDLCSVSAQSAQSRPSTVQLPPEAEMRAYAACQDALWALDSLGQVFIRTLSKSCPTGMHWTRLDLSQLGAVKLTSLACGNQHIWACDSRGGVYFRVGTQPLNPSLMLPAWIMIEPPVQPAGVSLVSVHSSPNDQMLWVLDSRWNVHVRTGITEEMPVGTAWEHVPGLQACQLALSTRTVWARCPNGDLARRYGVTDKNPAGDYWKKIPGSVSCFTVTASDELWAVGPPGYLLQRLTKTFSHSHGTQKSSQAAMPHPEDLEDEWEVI

Molecule	tested on	test	test system	setting	scale	quantity	value
Cc1cc(-c2ccc(NC(=O)CC[C@H](NC(=O)CN3CCN(CC(=O)O)CCN(CC(=O)O)CCN(CC(=O)O)CC3)C(=O)NCC(=O)N[C@@H](CC(N)=O)C(=O)N[C@H](C(=O)N[C@H](C(=O)N[C@@H](CCCNC(=N)N)C(=O)N[C@@H](CCC(N)=O)C(=O)O)C(C)C)C(C)C)c(C)c2)ccc1/N=N/c1ccc2c(S(=O)(=O)O)cc(S(=O)(=O)O)c(N)c2c1O [copper-64 labelled]			nude mice, heart	intravenous, 4 h		tissue uptake	13.7 ± 2.04 %ID/g
CAGACTGGGAAGTTCCAGTGTC (dsDNA)	RELA 1-551 (Homo sapiens, UniProt Q04206)	EMSA	double-stranded DNA, one strand shown			Kd	699 nM
N=C(N)NCCC[C@@H]1NC(=O)[C@H](CCCCNC(=O)CC[C@H](NC(=O)CN2CCN(CC(=O)O)CCN(CC(=O)O)CCN(CC(=O)O)CC2)C(=O)NCCCC[C@@H]2NC(=O)[C@@H](Cc3ccccc3)NC(=O)[C@H](CC(=O)O)NC(=O)CNC(=O)[C@H](CCCNC(=N)N)NC2=O)NC(=O)[C@@H](Cc2ccccc2)NC(=O)[C@H](CC(=O)O)NC(=O)CNC1=O [indium-111 labelled]			female BALB/c nude mice, U-87 MG xenograft, blood	intravenous, dose not given, 4 h		blood radioactivity	< 0.05 %ID/g
CCCC[C@H](NC(=O)CCCCCCCNC(=O)CN1CCN(CC(=O)O)CCN(CC(=O)O)CC1)C(=O)N[C@H]1CC(=O)NCCCC[C@@H](C(N)=O)NC(=O)[C@H](Cc2c[nH]c3ccccc23)NC(=O)[C@H](CCCNC(=N)N)NC(=O)[C@@H](Cc2ccccc2)NC(=O)[C@H](Cc2c[nH]cn2)NC1=O [technetium-99m labelled]			C57 mouse, bone	intravenous, 0.037 MBq, 2 h		tissue uptake	0.02 ± 0.01 %ID/g
N=C(N)NCCC[C@@H]1NC(=O)[C@H](CCCCNC(=S)Nc2ccc(CC3CN(CC(=O)O)CCN(CC(=O)O)CCN(CC(=O)O)CCN3CC(=O)O)cc2)NC(=O)[C@@H](Cc2ccc(O)cc2)NC(=O)[C@H](CC(=O)O)NC(=O)CNC1=O (some centres unmarked) [actinium-225 labelled]			mice with U-87 MG tumour, tumour			effective half-life	69.4 h
P1 R1336W	Rab5 GFP fusion Q79L	co-IP	HEK293T, lysate	together with: GTP	reference: unchanged protein, higher = more binding	relative binding	0.17
CCCC[C@@H]1NC(=O)[C@@H](CC(C)C)NC(=O)[C@H](CCCCNC(=O)CN2CCN(CC(=O)O)CCN(CC(=O)O)CC2)NC(=O)NNC(=O)[C@H](Cc2c[nH]cn2)NC(=O)[C@@H](Cc2c[nH]c3ccccc23)NC1=O [copper-64 labelled]			Balb/c mice, pancreas	intravenous, dose not given		tissue uptake	0.21 %ID/g
CC(C)C[C@H](NC(=O)[C@H](Cc1ccc(O)cc1)NC(=O)[C@@H](CCCNC(=N)N)NC(=O)[C@@H](CO)NC(=O)[C@H](Cc1ccccc1)NC(=O)[C@H](CC1CCCCC1)NC(=O)[C@H](CC(=O)O)NC(=O)CN1CCN(CC(=O)O)CCN(CC(=O)O)CCN(CC(=O)O)CC1)C(=O)N[C@@H](Cc1c[nH]c2ccccc12)C(=O)N[C@@H](CO)C(=O)O [copper-64 labelled]			human, red marrow	concentration not given, 3 h		activity concentration	1440 Bq/mL and 738 Bq/mL and 960 Bq/mL and 878 Bq/mL and 1610 Bq/mL and 1110 Bq/mL
P1 D1000Y	Rab5 GFP fusion Q79L	co-IP	HEK293T, lysate	together with: GTP	reference: unchanged protein, higher = more binding	relative binding	0.32
nucleophosmin S112E		far-UV CD, CDSSTR	Tris buffer, NaCl	pH 7.5, room temperature		unstructured content	67%
C=C1CC[C@H](OCCCNC(=O)CCOCCOCCOCCOCCOCCOCCOCCOCCOCCOCCOCCOCCOCCOCCOCCOCCOCCOCCOCCOCCOCCOCCOCCOCCOCCOCCOCCOCCOCCOCCOCCOCCOCCOCCOCCOCCNC(=O)CCN2C(=O)CC(SC[C@H](NC(=O)[C@H](Cc3ccccc3)NC(=O)[C@H](CC(N)=O)NC(=O)[C@H](Cc3c[nH]cn3)NC(=O)[C@@H](NC(=O)[C@H](CC(=O)O)NC(=O)[C@H](CCC(N)=O)NC(=O)[C@H](CC(C)C)NC(=O)[C@H](CCCCN)NC(=O)[C@H](CCCCN)NC(=O)[C@H](CCCNC(=N)N)NC(=O)[C@H](CC(C)C)NC(=O)[C@H](Cc3c[nH]c4ccccc34)NC(=O)[C@H](CCC(=O)O)NC(=O)[C@@H](NC(=O)[C@H](CCCNC(=N)N)NC(=O)[C@H](CCC(=O)O)NC(=O)[C@H](CCSC)NC(=O)[C@H](CO)NC(=O)[C@H](CC(N)=O)NC(=O)[C@H](CC(C)C)NC(=O)[C@H](Cc3c[nH]cn3)NC(=O)[C@H](CCCCN)NC(=O)CNC(=O)[C@H](CC(C)C)NC(=O)[C@H](CC(N)=O)NC(=O)[C@H](Cc3c[nH]cn3)NC(=O)[C@H](CCSC)NC(=O)[C@H](CC(C)C)NC(=O)[C@H](CCC(N)=O)NC(=O)[C@@H](NC(=O)[C@H](CCC(=O)O)NC(=O)[C@H](CO)NC(=O)[C@@H](NC(=O)[C@@H](N)CO)C(C)C)[C@@H](C)CC)C(C)C)C(C)C)C(=O)O)C2=O)C/C1=C/C=C1\CCC[C@]2(C)[C@@H]([C@H](C)CCCC(C)(C)O)CC[C@@H]12 (some centres unmarked)			male cynomolgus monkey, plasma	subcutaneous, 0.07 mg/kg, single dose		MRT	17.5 h
CCCC[C@@H]1NC(=O)[C@@H](CC(C)C)NC(=O)[C@H](CCCCNC(=O)CN2CCN(CC(=O)O)CCN(CC(=O)O)CC2)NC(=O)[C@@H](CO)NC(=O)[C@H](Cc2c[nH]cn2)NC(=O)[C@@H](Cc2c[nH]c3ccccc23)NC1=O [copper-64 labelled]			Balb/c mice, bone	intravenous, dose not given		tissue uptake	0.28 ± 0.04 %ID/g
CC(C)C[C@H](NC(=O)[C@@H](CCCCNC(=O)[C@@H](Cc1ccccc1)NC(=O)CCCCCNC(=O)CN1CCN(CC(=O)O)CCN(CC(=O)O)CCN(CC(=O)O)CC1)NC(=O)[C@H](Cc1ccc(O)cc1)NC(=O)[C@H](CO)NC(=O)[C@H](Cc1c[nH]c2ccccc12)NC(=O)[C@H](Cc1c[nH]cn1)NC(=O)[C@@H]1CCC(=O)N1)C(=O)N[C@@H](CCCNC(=N)N)C(=O)N1CCC[C@H]1C(=O)NCC(N)=O [indium-111 labelled]			female athymic nude mice, tumor	intravenous, 0.037 MBq, 4 h		tissue uptake	0.15 ± 0.03 %ID/g
TGCTGACGAGCTGTCCATGGATCTTGAGCATTGATCCGGC (ssDNA)	AGTR1 1-359 (Homo sapiens, UniProt P30556)	ELONA	single-stranded DNA			binding	binds

Some of these lines once more:
Molecule	tested on	test	test system	setting	scale	quantity	value
C=C1CC[C@H](OCCCNC(=O)CCOCCOCCOCCOCCOCCOCCOCCOCCOCCOCCOCCOCCOCCOCCOCCOCCOCCOCCOCCOCCOCCOCCOCCOCCOCCOCCOCCOCCOCCOCCOCCOCCOCCOCCOCCOCCNC(=O)CCN2C(=O)CC(SC[C@H](NC(=O)[C@H](Cc3ccccc3)NC(=O)[C@H](CC(N)=O)NC(=O)[C@H](Cc3c[nH]cn3)NC(=O)[C@@H](NC(=O)[C@H](CC(=O)O)NC(=O)[C@H](CCC(N)=O)NC(=O)[C@H](CC(C)C)NC(=O)[C@H](CCCCN)NC(=O)[C@H](CCCCN)NC(=O)[C@H](CCCNC(=N)N)NC(=O)[C@H](CC(C)C)NC(=O)[C@H](Cc3c[nH]c4ccccc34)NC(=O)[C@H](CCC(=O)O)NC(=O)[C@@H](NC(=O)[C@H](CCCNC(=N)N)NC(=O)[C@H](CCC(=O)O)NC(=O)[C@H](CCSC)NC(=O)[C@H](CO)NC(=O)[C@H](CC(N)=O)NC(=O)[C@H](CC(C)C)NC(=O)[C@H](Cc3c[nH]cn3)NC(=O)[C@H](CCCCN)NC(=O)CNC(=O)[C@H](CC(C)C)NC(=O)[C@H](CC(N)=O)NC(=O)[C@H](Cc3c[nH]cn3)NC(=O)[C@H](CCSC)NC(=O)[C@H](CC(C)C)NC(=O)[C@H](CCC(N)=O)NC(=O)[C@@H](NC(=O)[C@H](CCC(=O)O)NC(=O)[C@H](CO)NC(=O)[C@@H](NC(=O)[C@@H](N)CO)C(C)C)[C@@H](C)CC)C(C)C)C(C)C)C(=O)O)C2=O)C/C1=C/C=C1\CCC[C@]2(C)[C@@H]([C@H](C)CCCC(C)(C)O)CC[C@@H]12 (some centres unmarked)			male cynomolgus monkey, plasma	subcutaneous, 0.07 mg/kg, single dose		MRT	17.5 h
CCCC[C@@H]1NC(=O)[C@@H](CC(C)C)NC(=O)[C@H](CCCCNC(=O)CN2CCN(CC(=O)O)CCN(CC(=O)O)CC2)NC(=O)[C@@H](CO)NC(=O)[C@H](Cc2c[nH]cn2)NC(=O)[C@@H](Cc2c[nH]c3ccccc23)NC1=O [copper-64 labelled]			Balb/c mice, bone	intravenous, dose not given		tissue uptake	0.28 ± 0.04 %ID/g
